Measured values gathered from unrelated publications.
Numbered parts are unrelated; each lists some results of a single study. Positions count from the first letter of the parent shown.

Study 1
Target: ABI1, truncated, D143A, DHFR fusion (Arabidopsis thaliana)
Technique: DHFR PCA, deep sequencing
Medium: yeast
Setting: methotrexate growth selection, single substitutions
Together with: (+)-ABA 0.11 µM
Relative to: wild-type fitted maximum
Reading: higher = stronger binding
Parent: PYL1, truncated, DHFR fusion (Arabidopsis thaliana); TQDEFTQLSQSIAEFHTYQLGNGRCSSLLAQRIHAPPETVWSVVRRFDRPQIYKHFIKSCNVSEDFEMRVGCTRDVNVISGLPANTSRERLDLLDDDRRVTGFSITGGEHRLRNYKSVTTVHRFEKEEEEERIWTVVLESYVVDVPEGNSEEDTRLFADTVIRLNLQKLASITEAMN; partner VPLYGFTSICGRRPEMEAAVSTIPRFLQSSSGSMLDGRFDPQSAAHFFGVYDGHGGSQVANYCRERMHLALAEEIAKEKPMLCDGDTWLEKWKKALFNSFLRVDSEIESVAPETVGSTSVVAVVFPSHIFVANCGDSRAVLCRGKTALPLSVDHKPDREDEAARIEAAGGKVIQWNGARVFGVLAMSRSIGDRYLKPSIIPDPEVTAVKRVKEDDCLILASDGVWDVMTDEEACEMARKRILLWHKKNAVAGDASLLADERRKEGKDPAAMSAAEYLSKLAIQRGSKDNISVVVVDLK
`S42L` — result for “relative binding score”: -4.94%.
For `R123L`, “relative binding score” read 8.4%.
For `G102A`, “relative binding score” read 9.31%.

Study 2
Target: RNA binding protein fox-1 homolog 2, RRM domain, GST-SBP tag (RBFOX2, Homo sapiens, UniProt O43251-10, residues 100-194)
Technique: RNA Bind-n-Seq
Form: RNA
Medium: in vitro
Tested at: 365 nM
Setting: natural RNA segment, single round, ends assumed
Relative to: no-protein control
Reading: higher = stronger binding
Target sequence (chain): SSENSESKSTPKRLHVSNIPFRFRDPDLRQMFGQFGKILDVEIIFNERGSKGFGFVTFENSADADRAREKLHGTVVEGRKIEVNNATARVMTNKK
`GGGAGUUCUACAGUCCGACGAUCCCCAAAAUUGUGAUUAUUAAAAAUAUAGUUAAUUGUGAUUAGCCUCCAGUGAAAAUAGGUUGAAAGCCUGUUUUGAUCCAGUGUUUUCUCCCAAAGAACUCUACGUUAAAUGGAAUUCUCGGGUGCCAA`: “RBNS enrichment (R)” 0.83.
Under “RBNS enrichment (R)”, `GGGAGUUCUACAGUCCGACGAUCAUCCCAGGCCCUGUGCGGAGCAUCGGGAAUACAAAGAUGAGAUAAAACAUUGUCCCUGCCCCCGGGGGCUCACAUGCCACUGGAAACAACAGACUCUUAAACUAACAAUUUGGAAUUCUCGGGUGCCAA` is recorded as 0.244.
For `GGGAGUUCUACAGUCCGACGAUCUUUGACCCCAGAUGUCCAGAUGUUUUGCAGUGUCUGGGGCUUGUGUCCCUUGUUCUUCGUUCUGCUGCUUUGCCCCUUCCUUCCCUCUUCAUGGAGUGAUUAUGUUGAUAUGGAAUUCUCGGGUGCCAA`, “RBNS enrichment (R)” read 1.15.
For `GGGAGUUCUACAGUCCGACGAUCGAGGAGUGGUUCAGUUUAGCCCUGCAAGACAUCUAUAACUUGACUGUUUGCUAAACCACAACUCUUUUUGGCUACUUGGGUCAUAGAGACAGCAGAGUUGCUCCAAGUAUUGGAAUUCUCGGGUGCCAA`, “RBNS enrichment (R)” read 0.312.
For `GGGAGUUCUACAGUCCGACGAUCUCACCUUUGCAAAGUUAUAGAGGAACCUGCCCUGGUACAUCUUUAAUAUUAGGAUUCUGUUUUCUACAUUGCAAGCACAGGCACCCAUAGUACACUUUUGUUGAAGUUACUGGAAUUCUCGGGUGCCAA`, “RBNS enrichment (R)” read 0.444.
Under “RBNS enrichment (R)”, `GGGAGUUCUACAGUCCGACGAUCAAUAGUUUACAAGUUAUCCUACUCCACAGAUUUUGGUAUGUUUGUUAUCUGGACAUGAUUUUGCUAUGCAGUUGUGAUAAUAAAAAUUCCAGCUCCUCAGGUUUAACCUCUGGAAUUCUCGGGUGCCAA` is recorded as 0.656.

Study 3
Target: Interferon regulatory factor 5, full length, phosphomimetic (IRF5, Homo sapiens, UniProt Q13568-2, residues 1-514, S451D/S453D/S456D/S462D)
Technique: protein-binding microarray
Form: double-stranded DNA, one strand shown
Medium: in vitro
Tested at: 940 nM top
Setting: 60-bp whole probe
Together with: salmon DNA 0.4 mg/ml
Relative to: random background probes
Reading: higher = stronger binding
All sequences stand within: GCCTAGCAC … GTCTTGATTCGCTTGACGCTGCTG
For `TTAGGTGTCCTACTGCTTTAGTGCTAG`, “fitted relative affinity” read -0.208 z-score.
`GTCGAACTGAGACTGGAGACGTGCTAG` — result for “fitted relative affinity”: -0.138 z-score.
Under “fitted relative affinity”, `TTAGGACTGGACACGGGGTTAGTGCTA` is recorded as -0.178 z-score.
`TCACCTTGCTTTATGTGACTGTGCTAG`: “fitted relative affinity” 0.295 z-score.
`TTAGGTATCCCTCTCCTTTAGTGCTAG` — result for “fitted relative affinity”: 0.79 z-score.

Other studies, line by line
For `PhoQ, residues 284 288 289 292 302 303 TNASYF`, the fold induction was 9.18 (PhoP, residues 12 14 15 18 19 IQSYL (Escherichia coli, UniProt P23836); Sort-seq, measured: YFP reporter; E. coli; PhoQ-PhoP variant library, together with: 10 µM Mg2+; relative to: high Mg2+ state, higher = stronger signaling).

For quick reference, copied from above (study 2):
For `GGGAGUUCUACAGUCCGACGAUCUCACCUUUGCAAAGUUAUAGAGGAACCUGCCCUGGUACAUCUUUAAUAUUAGGAUUCUGUUUUCUACAUUGCAAGCACAGGCACCCAUAGUACACUUUUGUUGAAGUUACUGGAAUUCUCGGGUGCCAA`, “RBNS enrichment (R)” read 0.444.
Under “RBNS enrichment (R)”, `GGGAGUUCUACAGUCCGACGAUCAUCCCAGGCCCUGUGCGGAGCAUCGGGAAUACAAAGAUGAGAUAAAACAUUGUCCCUGCCCCCGGGGGCUCACAUGCCACUGGAAACAACAGACUCUUAAACUAACAAUUUGGAAUUCUCGGGUGCCAA` is recorded as 0.244.
